Measured values collected from several papers.
Protocols differ between the studies behind these lines.
Target: G protein-coupled receptor kinase 3 (GRK3, Homo sapiens, UniProt P35626)
Sequence (P35626 1-688, as in one of the studies): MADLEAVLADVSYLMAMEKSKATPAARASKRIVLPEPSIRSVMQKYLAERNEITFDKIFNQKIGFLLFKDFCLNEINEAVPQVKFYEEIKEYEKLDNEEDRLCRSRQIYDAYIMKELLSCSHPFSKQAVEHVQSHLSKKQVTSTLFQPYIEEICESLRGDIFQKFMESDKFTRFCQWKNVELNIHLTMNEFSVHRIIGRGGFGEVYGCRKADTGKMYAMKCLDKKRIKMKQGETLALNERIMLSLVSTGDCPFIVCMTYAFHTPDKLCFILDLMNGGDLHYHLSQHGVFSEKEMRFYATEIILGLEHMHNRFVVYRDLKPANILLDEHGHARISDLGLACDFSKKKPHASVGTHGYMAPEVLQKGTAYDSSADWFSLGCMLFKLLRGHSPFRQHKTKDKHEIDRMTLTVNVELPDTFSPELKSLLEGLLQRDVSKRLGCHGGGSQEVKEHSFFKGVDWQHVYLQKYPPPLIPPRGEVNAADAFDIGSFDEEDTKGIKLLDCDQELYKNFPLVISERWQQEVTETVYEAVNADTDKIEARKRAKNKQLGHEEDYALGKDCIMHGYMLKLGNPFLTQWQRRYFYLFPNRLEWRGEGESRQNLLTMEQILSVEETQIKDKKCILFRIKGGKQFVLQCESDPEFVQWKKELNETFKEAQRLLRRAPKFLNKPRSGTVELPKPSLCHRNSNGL

Compound	test	conditions	scale	quantity	result
CNC(=O)C[C@H](Cc1ccc(C#N)cc1)NC(=O)c1cc(-c2ccc(CN[C@H](C)c3ccc(C)cc3)o2)ccc1Cl	enzyme activity, inhibitor	1 µM	–	activity vs control	99%
Nc1ncc2c(n1)-c1c([nH]c3ccc(C4=CCOCC4)cc13)CCC2	binding, competition with immobilised ligand	1 µM	–	remaining binding	100%
CN1CCN(Cc2ccc(-c3ccc(CO[C@H]4CCC[C@@H]4NC(=O)c4cc(-c5cnn(C)c5)cnc4N)cc3)cc2)CC1	enzyme activity, inhibitor	0.1 µM	–	inhibition	-3%
CCn1cc(C(=O)O)c(=O)c2c(N)c(F)c(NC3CCCCC3)cc21	kinase activity	0.1 µM, added: ATP at Km	–	inhibition	-0.3%
NC(=O)C[C@H]1CCc2sc3ncnc(O[C@H]4CC[C@H](N5CCOCC5)CC4)c3c21	enzyme activity, inhibitor	10 µM	–	inhibition	0%
CC(C)=CC1OC(C)(C)C2C=C3C(=O)C(Cl)=CC(O)C3C3C(O)C4OC4C(=O)C132 (stereo not drawn)	cell-free assay, competition with immobilised ligand	10 µM	–	remaining binding	100%
COc1cc(Nc2nc(C)cc(-c3cnn4nc(OC)ccc34)n2)cc(C(F)(F)F)c1	KINOMEscan	1 µM, ADRBK2	reference: DMSO	remaining binding	100%
C=CC(=O)N1CCCC(n2c(=O)c3ncccc3n(Cc3ccc(Oc4ccccc4)cc3)c2=O)C1 (stereo not drawn)	cell-free assay, competition with immobilised ligand	1 µM	–	remaining binding	47%
CNC(=O)C1CCN(c2cc(C)c(F)cc2NC(=O)c2ccc(-c3cc(O)ccc3C)c(C)c2)CC1	binding, competition with immobilised ligand	1 µM	–	remaining binding	80%

For quick reference, copied from above:
Compound	test	conditions	scale	quantity	result
C=CC(=O)N1CCCC(n2c(=O)c3ncccc3n(Cc3ccc(Oc4ccccc4)cc3)c2=O)C1 (stereo not drawn)	cell-free assay, competition with immobilised ligand	1 µM	–	remaining binding	47%
